Results pooled from the literature.
Lines come from different studies, so protocols differ. ± marks the error that the study gave.
Organism: Acinetobacter baumannii

For CC1(C)SC2C(NC(=O)C(NC(=O)C3=C(O)C(Cc4ccco4)NC3=O)c3ccccc3)C(=O)N2C1C(=O)O (stereo not shown), the MIC was 50 µg/mL (microbial growth, broth dilution; ATCC19606).
The MIC of CCn1cc(C(=O)NCCNCCO)c(=O)c2cc(OC)c(OCc3cc(F)cc(F)c3)cc21 is reported as < 0.25 µg/mL (ATCC 19606; ≥80% growth inhibition).
The MIC of CCCCCC(=O)N[C@@H](CCN)C(=O)N[C@H](C(=O)N[C@@H](CCN)C(=O)N[C@H](Cc1ccccc1)C(=O)N[C@@H](CC(C)C)C(=O)N[C@@H](CCN)C(=O)N[C@@H](C(=O)N[C@@H](CC(C)C)C(=O)N[C@@H](CO)C(N)=O)C(C)C)[C@@H](C)CC is reported as 0.00195 to 0.0039 µg/mL (checkerboard, item: rifampicin; ATCC 19606; sensitization to antibiotics, with: compound at 4 µg/mL).
CC1(C)SC2C(NC(=O)C(NC(=O)C3=C(O)C4CCCN4C3=O)c3ccccc3)C(=O)N2C1C(=O)O (stereo not shown) gave an MIC of ≥ 200 µg/mL (microbial growth, broth dilution; ATCC19606).
The MIC of N#CC(=Cc1cn(-c2ccccc2)nc1-c1ccccc1)C1=NC(=O)CS1 is reported as 0.44 µg/mL (microbial growth, broth dilution).
With CC[C@H](C)[C@H](NC(=O)[C@H](CCN)NC(=O)[C@@H](N)CC1CCCCC1)C(=O)N[C@@H](CCN)C(=O)N[C@H](Cc1ccccc1)C(=O)N[C@@H](CC(C)C)C(=O)N[C@@H](CCN)C(=O)N[C@@H](C(=O)N[C@@H](CC(C)C)C(=O)N[C@@H](CO)C(N)=O)C(C)C the MIC was 0.0039 to 0.0078 µg/mL (checkerboard, item: rifampicin; ATCC 19606; sensitization to antibiotics, with: compound at 2 µg/mL).
CC(C)C1NC(=O)C(C(=O)NC(C(=O)NC2C(=O)N3C2SC(C)(C)C3C(=O)O)c2ccccc2)=C1O (stereo not shown) gave an MIC of 100 µg/mL (microbial growth, broth dilution; ATCC19606).
The MIC of CCOC(=O)c1c(N)csc1-c1cn(-c2ccccc2)nc1-c1ccc(C)cc1 is reported as 0.24 ± 0.1 µg/mL (broth microdilution; clinical urinary isolate; compound gamma-irradiated 1 kGy).
CCCCCCCC(=O)N[C@@H](CCCN)C(=O)N[C@H](C(=O)N[C@@H](CCCN)C(=O)N[C@H](Cc1ccccc1)C(=O)N[C@@H](CC(C)C)C(=O)N[C@@H](CCCN)C(=O)N[C@@H](C(=O)N[C@@H](CC(C)C)C(=O)N[C@@H](CO)C(N)=O)C(C)C)[C@@H](C)CC gave an MIC of 0.0156 to 0.0313 µg/mL (checkerboard, item: rifampicin; ATCC 19606; sensitization to antibiotics, with: compound at 4 µg/mL).
The MIC of O=C(O)c1cn(C2CC2)c2cc(N3CCNCC3)c(F)cc2c1=O is reported as 2.3 µM (microbial growth, broth dilution; ATCC19606 DSM30007; 20 h).

Excerpt of the above:
For CC1(C)SC2C(NC(=O)C(NC(=O)C3=C(O)C(Cc4ccco4)NC3=O)c3ccccc3)C(=O)N2C1C(=O)O (stereo not shown), the MIC was 50 µg/mL (microbial growth, broth dilution; ATCC19606).
